Results collected from several papers.
Numbered parts are unrelated; each lists some results of a single study. Substitutions count along the parent as printed.

Series 1
Target: CCND2, cyclin fold, Cln2 fusion (human)
Technique: yeast growth competition, sequencing
Medium: yeast
Notes: strong parent motif
Baseline: not given
Reading: higher = stronger binding
Parent: viral docking peptide; YKVKRRLVFGADD; partner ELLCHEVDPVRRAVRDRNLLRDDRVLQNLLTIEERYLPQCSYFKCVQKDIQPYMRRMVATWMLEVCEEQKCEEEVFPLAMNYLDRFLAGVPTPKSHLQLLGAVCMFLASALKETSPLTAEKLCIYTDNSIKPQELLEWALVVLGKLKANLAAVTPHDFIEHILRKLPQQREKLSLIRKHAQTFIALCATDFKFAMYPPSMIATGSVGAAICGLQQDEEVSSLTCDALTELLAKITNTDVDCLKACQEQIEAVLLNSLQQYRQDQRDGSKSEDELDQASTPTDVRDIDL
Substitution | normalised enrichment score
K2E | 1.43
V8L | 0.794
R5W | -0.161
K2I | 0.603
F9R | -0.238
L7H | 0.0401
K2T | 2.02
G10K | 1.13
L7Q | -0.147
V3N | 0.224
L7F | 0.103
K2D | 1.25
L7G | -0.648
R5Y | -0.0686
K2R | 1.29
A11K | 1.15
K4Y | 0.352
V8E | 1.88
A11I | 1.28
F9D | 0.52
A11N | 1.51
L7C | -0.166
D12A | 0.97
F9P | -0.0248
L7N | 0.444

Series 2
Target: Ras GTPase-activating protein-binding protein 1, C-terminal RGG region (G3BP1, Homo sapiens, UniProt Q13283)
Sequence of UniProt Q13283 (whole entry, looked up): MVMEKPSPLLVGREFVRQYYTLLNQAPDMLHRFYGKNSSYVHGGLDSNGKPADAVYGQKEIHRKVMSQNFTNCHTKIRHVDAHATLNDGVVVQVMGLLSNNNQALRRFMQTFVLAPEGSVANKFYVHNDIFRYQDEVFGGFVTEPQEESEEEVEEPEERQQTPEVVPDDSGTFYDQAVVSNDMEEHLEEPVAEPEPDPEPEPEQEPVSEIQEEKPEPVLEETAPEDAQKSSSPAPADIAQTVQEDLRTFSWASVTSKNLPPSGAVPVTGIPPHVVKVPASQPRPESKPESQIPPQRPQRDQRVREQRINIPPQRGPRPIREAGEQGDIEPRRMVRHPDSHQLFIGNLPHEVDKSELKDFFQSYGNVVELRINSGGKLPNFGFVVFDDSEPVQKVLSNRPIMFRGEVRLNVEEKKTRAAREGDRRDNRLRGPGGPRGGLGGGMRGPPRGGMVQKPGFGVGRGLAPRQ
Technique: RNA Bind-n-Seq
Molecule type: RNA
Medium: in vitro
Tested at: 1 µM
Notes: whole 134-nt RNA, ends assumed
With: 150 mM KCl
Baseline: input library
Reading: higher = stronger binding
Strand | log2 enrichment
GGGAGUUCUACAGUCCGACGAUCUGGGAGGUGGUUUUUGUUUAUUUUUUUAGCUCAUUUCCAGGGGUGGGAAUUUUUUUUUAAUAUGUGUCAUGAAUAAAGUUGUUUUUGAAAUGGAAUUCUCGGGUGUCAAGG | 2.72
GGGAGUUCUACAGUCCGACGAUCAGUCCUGUGCUACACAUCGUAUGUACCGAAUCGGGGUUUUUGGGUUUUUGGUUUUUGGAAAGUAUUAUGUUACGCCGUUCGGAUCUGCACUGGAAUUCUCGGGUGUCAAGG | -1.68
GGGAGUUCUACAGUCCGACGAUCGCAGGAAGUAAAAACACAUGGAAAUGCUUCGGAUAGUGGCAGGGGUGGGGGUUGCUAAGGAAAGGGUGGGAUGGGAGUGGGUAAAGAGUUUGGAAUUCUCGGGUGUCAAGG | 1.92
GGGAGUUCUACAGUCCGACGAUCCCUCAAGUCCUGUGCUACACAUCGUAUGUACCGAAUCGGUGGUUUUUGGAGGAAAGUAUUAUGUUACGCCGUUCGGAUCUGCACUUCCAGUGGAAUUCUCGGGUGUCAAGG | -0.481
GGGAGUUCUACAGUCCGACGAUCUAACUUUAGAGGAGGAUCUGAUGGAUAUGGCAGUGGACGUGGAUUUGGGGAUGCCUAUAAUGGGUAUGGAGGAGGACCUGGAGGUGGCAAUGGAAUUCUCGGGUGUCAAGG | -0.263
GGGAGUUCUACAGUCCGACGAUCUGGGAGGUGGAUUUUGUUUAUUUUUUUAGCUCAUUUCCAGGGGUGGGAAUUUUUUUUUAUUAUGUGUCAUGAAUAAAGUUGUUUUUGAAAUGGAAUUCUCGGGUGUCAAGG | 3.44
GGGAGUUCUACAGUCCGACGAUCCCUGUGCUACACAUCGUAUGUACCGAAUCGGGCCCCCCCGGGCCCCCCCGGCCCCCCCGGGAAAGUAUUAUGUUACGCCGUUCGGAUCUGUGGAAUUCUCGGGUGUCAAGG | -1.62
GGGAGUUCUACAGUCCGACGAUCUCUGGACAUGCAGGUGGACCAGUCAGUGCCAGAGUAAGUUGUUGUUUUCUUAAAAGAAAAAAAAAAAUGUAAAAUCAUCUAACCCUAACCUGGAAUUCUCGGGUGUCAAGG | -0.73

Series 3
Target: HLA class I histocompatibility antigen, A alpha chain, allele A*80:01 (Homo sapiens, UniProt P04439)
Observed: peptide-MHC binding
Molecule type: peptide
Tested at: concentration not given
Sequence | binding
HSRRSRRSL | inactive
YITDYSNDI | inactive
MTTTANWLW | inactive

Series 4
Target: RING finger protein unkempt homolog, zinc fingers 1-6, SBP tag (UNK, Homo sapiens, UniProt Q9C0B0, residues 30-357)
Sequence of UniProt Q9C0B0 (30-357, looked up): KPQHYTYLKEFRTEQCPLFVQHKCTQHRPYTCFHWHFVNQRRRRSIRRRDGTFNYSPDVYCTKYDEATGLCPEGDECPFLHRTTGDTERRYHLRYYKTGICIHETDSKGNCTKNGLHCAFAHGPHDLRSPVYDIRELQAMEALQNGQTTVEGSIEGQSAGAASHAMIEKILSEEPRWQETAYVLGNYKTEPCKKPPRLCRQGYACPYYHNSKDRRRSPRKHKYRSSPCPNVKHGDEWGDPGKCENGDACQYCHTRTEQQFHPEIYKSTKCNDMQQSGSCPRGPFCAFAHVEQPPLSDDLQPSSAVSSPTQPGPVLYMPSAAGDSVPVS
Technique: RNA Bind-n-Seq
Molecule type: RNA
Medium: in vitro
Tested at: 100 nM
Notes: RNA with constant flanks, vertebrate orthologous sites, ends assumed
Baseline: input RNA pool
Reading: higher = stronger binding
Strand | bound/input enrichment [ratio]
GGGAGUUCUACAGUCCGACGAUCGCAAUGAAAAUUCAGCCCUUCUCCCAGCCCCUUUUUUACUAGGAGAUACAAACGUUACCAUAGAAGAGCAAUUAAACUCAAUAAAUUUAUCUUUUCAGGAUGAUCCAGACUCCAGUACCACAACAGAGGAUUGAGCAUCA | 1.66
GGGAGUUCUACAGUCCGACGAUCAGUUAUAGCAAAAGAGCCAAGCAGUAGUCUUGUGGGGUUUUCUGUAAAUGUAAAAAUACUUAGAUCCAGACUUUGUUUCCUUCUUCAAUUUCAAAAAUAAAAAAUACCUCAGUGCUAUGUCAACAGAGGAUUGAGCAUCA | 0.643
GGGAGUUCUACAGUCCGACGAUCGGGCGGCUGGUGGGGAAAUCCCCUGCCUUGGCCUUGCCUCCCCUUCCUGCCACCUGCCCCUAGUUAUUUUUUUUUUUUUACCACCAUGUGAUUAAGGUCGGCGCUGCCUCCCCCGACCCACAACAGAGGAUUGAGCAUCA | 9.14
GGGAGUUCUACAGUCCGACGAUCCAACGCCAUGGUGGAAGGCUCCGAGCUCAAGAAGGUCCGAUCCAACUCCAGGGUGUACCACCGCUACUUCCUCCUGGAUGCUGAUAUGCAGUCUCUACGCUGGGAACCUUCCAAAAAGGACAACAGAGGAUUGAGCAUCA | 0.289
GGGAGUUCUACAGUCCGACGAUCUGGGUUAUUCCUAUUAUUAUCAAGUAGCUGGAAUUGUGAAGGUCGGAGUAGUUAGAUCUUUAGCUUUUAUUCCUUAUUUUUUUGUAUUACUAUCCAUGUGUAUAAAUUAUUGAUCAUGUUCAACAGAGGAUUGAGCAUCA | 1.97
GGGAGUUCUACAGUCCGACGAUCUGUGGGGUUUAGGGGUGGGAAAGGGAAGAUAUAUGGACCUUUGUGGCAUUUUUAAGUGUUUAGAGCUCCUCCCCCUCCUUUUGUUUUGUAAUUUCCCUUGAACGUAAUGCACUGACCUGACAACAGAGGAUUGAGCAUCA | 1.45
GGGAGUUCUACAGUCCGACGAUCGCACAGAAUGUUUUAACCUGUUUGAAGAUAACACGUGAGCUUUGCUUUGGAGCAUUUAAAUAGGCUACUUUUCUAUCGCGACUGCUCAAAGAAUUUGAAGUUAUGUGUUAGUUUUGCUCUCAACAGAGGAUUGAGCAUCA | 0.285
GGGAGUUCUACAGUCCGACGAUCCAUGUCCCUGUUGCUGUGAUAUUUGAAAUAUCCACAGUACUCACUAUUUCCAAAUGAUUCUAGUAUUGCCUAGAAAUCUUUCUCUUACCUGUUAUUUAUCAACUUUUCCCUGUAUUUUUACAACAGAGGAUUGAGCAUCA | 0.974

Series 5
Target: Histone acetyltransferase KAT6A, winged helix 1, GST fusion (KAT6A, Homo sapiens, UniProt Q92794, residues 1-85)
Technique: protein binding microarray
Molecule type: double-stranded DNA, one strand shown
Medium: in vitro
Tested at: not given
Notes: 8-mer, flanks averaged, mean of 2 arrays, mostly near background
Baseline: not given
Reading: higher = stronger binding
Residues (chain): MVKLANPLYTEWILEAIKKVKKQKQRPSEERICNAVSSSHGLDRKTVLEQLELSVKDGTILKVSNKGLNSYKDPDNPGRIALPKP
Strand | E-score
CCCGGCCA | 0.0938
CACTTGCC | -0.0862
ATCCAGTG | -0.156
ACCAGGTG | -0.0721
GCCTGGCA | -0.152
CTAAGGGC | -0.0915
CCTGGATC | -0.134
GGTACTTA | 0.0184

Single results of other studies
Molecule | tested on | assay | system | setting | measurement | result
EMC8 (Homo sapiens, UniProt O43402) | EMC2 (Homo sapiens, UniProt Q15006) | cross-linking MS | cell fractions | with: DSSO | cross-linked residues | K100 to K136
CNCc1ccccc1-c1csc([C@@H](C)Nc2nc(C)nc3cc(OC)c(OC)cc23)c1 | DRD5 (Homo sapiens, UniProt P21918) | cell-free assay |  | 10 µM | inhibition | 32.5%
BRMS1L (Homo sapiens, UniProt Q5PSV4) | SIN3A (Homo sapiens, UniProt Q96ST3) | cross-linking MS |  | hits only | interaction screen | cross-linked
HSPD1 (Homo sapiens, UniProt P10809) | RTN4 (Homo sapiens, UniProt Q9NQC3) | cross-linking MS | cell fractions | with: DSSO | cross-linked residues | K236 to K501
PSMC2 (Homo sapiens, UniProt P35998) | ECPAS (Homo sapiens, UniProt Q5VYK3) | cross-linking MS | cell fractions | with: DSSO | cross-linked residues | K407 to K852

A few entries again (series 2):
Strand | log2 enrichment
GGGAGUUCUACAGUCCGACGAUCGCAGGAAGUAAAAACACAUGGAAAUGCUUCGGAUAGUGGCAGGGGUGGGGGUUGCUAAGGAAAGGGUGGGAUGGGAGUGGGUAAAGAGUUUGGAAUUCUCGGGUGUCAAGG | 1.92
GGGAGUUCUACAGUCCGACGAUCUGGGAGGUGGAUUUUGUUUAUUUUUUUAGCUCAUUUCCAGGGGUGGGAAUUUUUUUUUAUUAUGUGUCAUGAAUAAAGUUGUUUUUGAAAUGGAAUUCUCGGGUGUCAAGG | 3.44
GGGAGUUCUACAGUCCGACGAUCUCUGGACAUGCAGGUGGACCAGUCAGUGCCAGAGUAAGUUGUUGUUUUCUUAAAAGAAAAAAAAAAAUGUAAAAUCAUCUAACCCUAACCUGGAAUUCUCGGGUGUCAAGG | -0.73
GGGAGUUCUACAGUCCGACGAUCCCUCAAGUCCUGUGCUACACAUCGUAUGUACCGAAUCGGUGGUUUUUGGAGGAAAGUAUUAUGUUACGCCGUUCGGAUCUGCACUUCCAGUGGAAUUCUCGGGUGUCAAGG | -0.481
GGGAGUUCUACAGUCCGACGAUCUGGGAGGUGGUUUUUGUUUAUUUUUUUAGCUCAUUUCCAGGGGUGGGAAUUUUUUUUUAAUAUGUGUCAUGAAUAAAGUUGUUUUUGAAAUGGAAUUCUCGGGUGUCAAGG | 2.72
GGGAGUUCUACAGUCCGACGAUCUAACUUUAGAGGAGGAUCUGAUGGAUAUGGCAGUGGACGUGGAUUUGGGGAUGCCUAUAAUGGGUAUGGAGGAGGACCUGGAGGUGGCAAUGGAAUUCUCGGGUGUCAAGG | -0.263
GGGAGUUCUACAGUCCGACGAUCCCUGUGCUACACAUCGUAUGUACCGAAUCGGGCCCCCCCGGGCCCCCCCGGCCCCCCCGGGAAAGUAUUAUGUUACGCCGUUCGGAUCUGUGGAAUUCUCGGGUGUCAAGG | -1.62
